# Published values pooled from the literature.
# Every numbered part comes from another study and shows a few of its results, in no order. Changes are numbered by the printed parent chain.

# Study 1 — method: universal PBM; molecule type: double-stranded DNA, one strand shown; medium: in vitro; tested at: not given; direction: higher = stronger binding
# Target: Sal-like protein 4, full length isoform B (SALL4, Homo sapiens, UniProt Q9UJQ4-2, residues 1-616)
# Notes: 8-mer, flanks averaged, mean of replicates
Oligonucleotide,E-score
CCATGCCC,-0.342
CTCTCTGA,-0.236
GTGTCGGA,-0.13
AACTTCTG,-0.00855
GAGACCTC,-0.169
GCCGAACA,-0.104
AGTCGCGA,-0.118
ACAGCGGC,-0.197
GAGCCTTA,-0.103
ACGCGGCG,-0.299
TGTATCAA,0.187
CGGAGCGC,-0.326
AACAGAAG,0.112
AAGACGAA,0.182
GACGCCCC,-0.369
GCGCCAAC,-0.17
GAGTGACA,-0.064
GACTAACA,0.0648
ATATCTGG,0.216
CAGTCCCG,-0.254
GCGATAGC,0.0343
AAAGGAAT,0.162
AGCTGGTA,-0.185
CTTCGCGC,-0.0733
CGGCCATA,-0.129

# Study 2 — method: RNA Bind-n-Seq; molecule type: RNA; medium: in vitro; tested at: not given; baseline: input RNA pool; direction: higher = stronger binding
# Target: RING finger protein unkempt homolog, zinc fingers 1-6, GST-SBP tag (UNK, Homo sapiens, UniProt Q9C0B0, residues 30-357)
# Chain of UniProt Q9C0B0 (30-357, looked up): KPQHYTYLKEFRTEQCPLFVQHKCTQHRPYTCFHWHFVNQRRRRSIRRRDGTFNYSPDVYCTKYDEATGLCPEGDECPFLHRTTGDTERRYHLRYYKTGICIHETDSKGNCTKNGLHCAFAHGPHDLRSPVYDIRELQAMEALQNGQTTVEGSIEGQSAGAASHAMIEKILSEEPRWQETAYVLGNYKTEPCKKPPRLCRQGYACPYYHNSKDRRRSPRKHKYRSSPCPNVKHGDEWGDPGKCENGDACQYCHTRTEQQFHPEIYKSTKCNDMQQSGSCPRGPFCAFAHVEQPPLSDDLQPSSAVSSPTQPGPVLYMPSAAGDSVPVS
# Notes: RNA with constant flanks, human and mouse sites, ends assumed
# Shared flanks, not repeated: GGGAGUUCUACAGUCCGACGAUC … CAACAGAGGAUUGAGCAUCA
Oligonucleotide,bound/input enrichment
GUGCUGCAGGCCUUGCGCCUCCAACCAGGACUUUCUUCUUAAUGCUCUCGACACUUAGCUAAACACGACUAUAUCCCGGCCCAGCAGGCCCCAGCGCCGUUAGUCUCCAGCUGACUCUGU,0.276 ratio
CACUAUAGACCUUUCCUCACUAGUUUCCAGCCUGACUUUAUUUCAGCCUUGGCUGUAGUCUAUUUCUAGCUUUUGAGGAGGUCUGGUUUUUACAGCUGAAAUCUAUUCUCUACCCACUUU,0.327 ratio
GCAGACAAGGCAGGGUUGCACUUCCUGCAGAAGAGGAUUAUUUACCACUUAAACCACGAGUUGGAAAAGCUGCUAAGGAAUACCCGUUCAUUCUUGAUGCUUUUCAAAGAGAGGCCAUUC,0.146 ratio
AUUCAUCGAAGCACACAUCCAGGAGAAAAACCCUAUAAAUGUAGUGAGUGUAGAAAAGCUUUCUUUUGGAAUUCACAACUCAUUACUCAUCGGAGGUCACAUAGAGGGAAGAAACCUUAU,0.356 ratio
UUUUGCAAUGUAGAUGAUGAUGAAUUAAGAGAGUACUGUAUUCAAGCCUUUGAAUCAUUUGUAAGAAGAUGUCCUAAGGAAGUAUAUCCUCAUGUUUCUACCAUUAUAAAUAUUUGUCUU,0.34 ratio
UUUGAAUCCCUGCAGAAGAAAACCAAGAUUGCACUGGAACAUCCAAUGUUGACAGAUAUGCAUGACAAAUUGGUGUUAAAGGGUGACUUUGAUGCUUGCGAGGAGUUGAUUGAAAAAGCU,0.226 ratio
GCAUUUGUAGAAGGAGUGGUUAAGAAAGUAGCUCAAUACAUGGCUGAUGUAUUGGAAGAUAGCAAAGACAAAGUUCAAGAGAAUCUGUUGGCUAAUGGAGUGGACUUGGUUACUUAUAUA,1.24 ratio
AGACAGCCCAUACACUCUGUCUCACAUCUGAUCCUUGGUGGGAAGUGUUUUAAAGUAGAACUAUGUAUGAAUUUCAGAAUUCAUGCAUUUUAAAACUUCACUAAGAUAUUGUCUCAUAUC,0.188 ratio
AUUGCAACAAAUGGAGAAAGUGCUGUGGUACAAUUACCAAAAAAUGGCCCAAUUUAUGAUGUAGUUUGGAAUUCCAGUUCUACUGAGUUUUGCGCUGUUUAUGGUUUUAUGCCUGCGAAA,0.108 ratio
CCAAGUCGCUGGGACUUAACACCUCCCCCCCCCCCCAGCAGGGAGUUGGCAAGAAUUUGGCUCCCGUAUUCUGCUGCAAUCCUCUACUGUCCCGGUGUGCCAGCCUUCCACCAUGACUGA,0.661 ratio
CCUCAGAUGGUGUCUGCUAUUGUACGUACCAUGCAGAAUACAAAUGAUGUAGAAACAGCUCGUUGUACCGCUGGGACCUUGCAUAACCUUUCCCAUCAUCGUGAGGGCUUACUGGCCAUC,0.153 ratio

# Study 3 — method: protein binding microarray; molecule type: double-stranded DNA, one strand shown; medium: in vitro; tested at: not given; baseline: not given; direction: higher = stronger binding
# Target: Histone acetyltransferase KAT6A, winged helix 2, GST fusion (KAT6A, Homo sapiens, UniProt Q92794, residues 85-181)
# Notes: 8-mer, flanks averaged, mean of 2 arrays, mostly near background
# Target sequence (chain): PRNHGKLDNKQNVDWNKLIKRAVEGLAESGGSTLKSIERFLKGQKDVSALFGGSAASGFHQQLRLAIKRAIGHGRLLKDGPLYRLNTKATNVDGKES
Oligonucleotide,E-score
CGTTCCCC,0.000765
AAACGTCT,-0.0672
CGGCTAAG,0.132
TCCGACGA,0.0723
ATTGCTAC,-0.00879
GTAGCAGA,0.109
CATAATAA,-0.0469
TAAGTCGA,-0.172
ATGCGTGA,0.132
ACACCGAC,0.171
ATAGGTCA,-0.115
AGTTCATC,-0.137
CTGTTCCA,-0.119
GGTAGACC,-0.0433
GGTCTTGA,-0.0797
GCCAAAAA,0.194
CAGAATCG,0.0919
ACGGTAGA,-0.154
GGCAGAGA,0.0833
TACCGCCA,0.0768
GGACTGTA,-0.259
AAAACGCC,0.173
ATTAGAAC,0.0663
GGTTACAA,0.0932
AGAGTATA,-0.0849

# Study 4 — method: RNA Bind-n-Seq; molecule type: RNA; medium: in vitro; tested at: 365 nM; baseline: no-protein control; direction: higher = stronger binding
# Target: RNA binding protein fox-1 homolog 2, RRM domain, GST-SBP tag (RBFOX2, Homo sapiens, UniProt O43251-10, residues 100-194)
# Notes: natural RNA segment, single round, ends assumed
# Shared flanks, not repeated: GGGAGUUCUACAGUCCGACGAUC … UGGAAUUCUCGGGUGCCAA
# Target sequence (chain): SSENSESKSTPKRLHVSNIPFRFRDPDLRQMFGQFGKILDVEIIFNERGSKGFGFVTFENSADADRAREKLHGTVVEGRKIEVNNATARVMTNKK
Oligonucleotide,RBNS enrichment (R)
GAAUUUCAGAGAUUCUUAGACUGGCUGCCAAAGGAUGAAGCUAGUGAAGGAGAAAAAGCUUAAAUUCCAUCUUGAGCUCUUGGAUUGUGAUAAUACAAUGAUUUCAUUAA,0.724
UGAGAGAGUGGCAUUGGCAGCAGGUGCUGCUACCCUCCCUGCUGUCCCCUCUUGCCCCAACCCCCAGCACCCGGGCUCAGGGACCACAGCAAGGCACCUGCAGGUUGGGC,0.34
CACCUCUGCCUGGAAGAGCUUGGACCAGAAACGACCUCCUCCUCUCUGUGUGUUGGAGGGAGAGGAGCUGGGCACUGUUUUGAUGUGGAGGGGAUGUUGUUCUGAGUUGA,1.65
AUAGUCUUCACUGCUUCACCUUGUUAAGUCAGAUAUUUAUGAUAAUGAAGUACGGAACUGGGAACUGGGGUCGUUGUUGACUAAUUGGUCCUAAGAGGAUAAAUUAUGUA,0.597
AGCAUUCUGGCAGCUUCCAAGUCAGCCAGCUGCCCUAAAUAACCCUUCAACAUUUCUUCACUUUUGCAAGGUUCCACAGACUAAGACAUUGGGUCUAUUCCAGCUCAUUC,1.12
GUGGGGGGAAUGGUCCCAGACUCCUCUCGGGGCCCCUAUCCACACAGGGCCUGGUGUUCUACCCCAUCUGGCCCCUGGCCCAUCUCUUCUGUGCCUUAGUCACAUAUGAA,0.196
UCGUUUGGAAGGAAAGCUGGGUAACGUUUUGGGCACAGGGGAAGGAGGACUCCGGUCUUAACUCCCACGCUAACUUUAGCUCAAGUGGAGUUUUCACCGUGGUCAUUUCU,0.484
UGUCCCAGGGAAAGUCUGAGAAGGCCUGAGCCGUGACCUCUUCUGCUUACUGUAACUGCGGCCGGUUUAGUGACCCCAUGACUUACAGCCGGUUCUUACCUCUUAGGUGA,0.419
CAGACUUGUUCACUCCAUUCAAUUAUGUCCUGAGCCUUGAAACUGUUUUAUUUAACCAUGGGGUAGGCUGGGGUGAUGUUUCAGUUUUCAAGGGACAGAAGCAAGACAAA,0.532
UUCAUCUCAAGUGUAUUGCAGUAAUGGCUGAAUCGGGGUUAACAUCCCUUCCAGGCACAGCGAGUUGGUUCUGCUUUUUGCCUGUAAGCCAAAGAAAAGCCACAUCUAAA,0.504
AAAACCUCUCCUCACACUUGGUAUGGAGACUCGACUGAAAAUGAGUUGAGUUUGGUCCUCUCCUUUUCCAAACACUCAGAACACAAAAGUGGAAUCUUCUCCCUACAUAA,0.401
UGUGUUUGUAGUGUGAGCUCUUGUUUUUGAAAUGAUUGCUUCAGUCUUUGCCUUUGUUUGCACUGUGUGUUCAGUGAAAACUAGAGAAACACAAUAAGCAAAUCACAUGA,0.469

# Study 5 — method: RNAcompete; molecule type: RNA; medium: in vitro; tested at: 20 nM; notes: 7-mer, probes averaged, single round; baseline: mean of 7-mers; direction: higher = stronger binding
# Target: PABPC1L2, full length, GST fusion (mouse, UniProt A0ABA7IW68)
# Construct (chain): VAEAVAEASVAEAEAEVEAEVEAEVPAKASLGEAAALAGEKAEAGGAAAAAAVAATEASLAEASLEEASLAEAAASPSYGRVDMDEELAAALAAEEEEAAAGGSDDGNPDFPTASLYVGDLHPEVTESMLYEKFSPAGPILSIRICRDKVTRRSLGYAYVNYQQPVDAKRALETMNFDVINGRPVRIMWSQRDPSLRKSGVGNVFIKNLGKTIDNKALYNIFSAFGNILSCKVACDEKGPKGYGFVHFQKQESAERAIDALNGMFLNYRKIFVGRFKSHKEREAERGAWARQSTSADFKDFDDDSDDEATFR
Oligonucleotide,7-mer Z-score
AUAUUCG,-0.266
ACGGCUC,-0.0844
AGCCUUA,-0.267
UGAUGAU,-0.244
AUAAUGU,-0.106
AGUCUGG,-0.113
CUUUAAU,0.144
GGUGCAG,0.164
GGUAUUC,-0.13
GGAGAUC,0.0261
CCGCUUG,-0.452
UUUAACA,-0.13
ACAUCUA,-0.0391
GAUGCGU,-0.177
AACCCGA,0.0968
UCCCUAU,-0.4
CUCACUA,-0.104
AUUUGGG,-0.0772

# Study 6 — target: CCND1, cyclin fold, Cln2 fusion (human); method: yeast growth competition, sequencing; medium: yeast; notes: weak parent motif; baseline: not given; direction: higher = stronger binding
# Parent: CDC6 docking peptide (human); TLKGRRLVFDNQL; partner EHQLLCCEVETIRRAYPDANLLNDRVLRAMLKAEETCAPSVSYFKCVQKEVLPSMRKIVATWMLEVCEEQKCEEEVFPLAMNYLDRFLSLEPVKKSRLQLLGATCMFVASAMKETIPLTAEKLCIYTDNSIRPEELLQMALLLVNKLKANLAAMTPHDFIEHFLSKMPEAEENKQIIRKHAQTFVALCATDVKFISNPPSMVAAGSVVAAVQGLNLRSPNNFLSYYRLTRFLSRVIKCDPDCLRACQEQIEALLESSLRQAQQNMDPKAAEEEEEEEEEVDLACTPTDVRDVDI
Variant,normalised enrichment score
TLKGRRLVFDWQL [N11W],0.939
TLKGRRLVFVNQL [D10V],-0.861
DLKGRRLVFDNQL [T1D],-0.411
TLKGRRLVFDNQD [L13D],0.693
TLKGKRLVFDNQL [R5K],0.291
TLKGRRLVFDRQL [N11R],0.0846
TLKGRRLVFDNQN [L13N],0.293
TLKGRELVFDNQL [R6E],0.0508
TLKERRLVFDNQL [G4E],-0.0707
THKGRRLVFDNQL [L2H],0.0286
TLKGRRLVNDNQL [F9N],-0.211
TLKGDRLVFDNQL [R5D],-0.000825
TLKGRRLFFDNQL [V8F],0.2
TLKGRRLVTDNQL [F9T],-0.177
TLKGRRLVFDNRL [Q12R],-0.145
TLKGRRLIFDNQL [V8I],0.361
TLKGRRLVFDLQL [N11L],0.372
TLKGRYLVFDNQL [R6Y],0.464
TLKGRPLVFDNQL [R6P],2.17

# A few entries again (study 3):
Oligonucleotide,E-score
ATTGCTAC,-0.00879
GTAGCAGA,0.109
CATAATAA,-0.0469
TAAGTCGA,-0.172
ATGCGTGA,0.132
ACACCGAC,0.171
ATAGGTCA,-0.115
AGTTCATC,-0.137
CTGTTCCA,-0.119
GGTAGACC,-0.0433
GGTCTTGA,-0.0797
GCCAAAAA,0.194
CAGAATCG,0.0919
ACGGTAGA,-0.154
GGCAGAGA,0.0833
TACCGCCA,0.0768
GGACTGTA,-0.259
AAAACGCC,0.173
